Published values from different studies.
Each line is one published result; not all experiments were run side by side. Values joined by “and” are separate records of one study, mostly repeats; a detail may differ. Numbers after ± are the reported error.
TNK1: Non-receptor tyrosine-protein kinase TNK1 (TNK1, Homo sapiens, UniProt Q13470)
Kir3.1/Kir3.4: Kir3.1/Kir3.4 (Homo sapiens, UniProt P48544+P48549)
pyrD: Dihydroorotate dehydrogenase (quinone) (pyrD, Acinetobacter baumannii, UniProt B7GZW7)
SLC6A6 G62A: Sodium- and chloride-dependent taurine transporter (SLC6A6, Homo sapiens, UniProt P31641, G62A)
AKR1B1: Aldo-keto reductase family 1 member B1 (AKR1B1, Homo sapiens, UniProt P15121)

SMILES	target	assay	system	conditions	how to read	measurement	result
CCCCCCCCCCCCCCc1ccc([C@H]2CC[C@H]([N+](C)(C)CCC)CC2)cc1.[I-]	Sphingosine kinase 2 (SPHK2, Homo sapiens, UniProt Q9NRA0)	inhibitor, radiometric flash-plate	cell lysate	together with: sphingosine 5 µM	–	Ki/Km ratio	1.4
CCN1CCC[C@H]1CNC(=O)c1c(O)c(Cl)cc(Cl)c1OC	NPBWR2 (Homo sapiens, UniProt P48146)	receptor activation, TANGO luminescence	–	concentration not given, unconfirmed screen	baseline: vehicle control	log2 fold change	0.211
C=CC(=O)N1CCC[C@@H](n2nc(-c3ccc(Oc4ccccc4)cc3)c3c(N)ncnc32)C1	TNK1	–	–	1 µM	–	remaining activity	148%
NC/C(=C\F)COc1cccc(Cn2c(=S)[nH]c(=O)c3[nH]cnc32)c1	Amine oxidase [copper-containing] 3 (Rattus norvegicus, UniProt O08590)	–	rat adipose tissue	0.037 µM	–	inhibition	89.5%
CC1=NN(c2ccc(C)cc2)C(=O)C1=NNc1ccc(S(N)(=O)=O)cc1	bovine α-glucosidase	enzyme activity, inhibitor, glucose oxidase	–	500 µg/mL, together with: maltose	–	inhibition	44.4%
COC(=O)c1ccc(NC(=O)COc2ccc(Cl)cc2Cl)s1	Kir3.1/Kir3.4	activator, thallium flux	HEK293	concentration not given	–	activity	inactive
Nc1ncnc2c1ncn2[C@@H]1O[C@H](COP(=O)(O)CP(=O)(O)OP(=O)(O)O)[C@@H](O)[C@H]1O	P2X purinoceptor 1 (P2RX1, Homo sapiens, UniProt P51575, S286A)	calcium influx	–	10 µM	baseline: ionomycin response	calcium influx	81.8% and 90.8% and 66.1% and 92.1%
c1coc(-c2n[nH]cc2-c2ccnc3ccccc23)c1	Serine/threonine-protein kinase CLA4 (CLA4, Candida albicans, UniProt O14427)	kinase binding, MIB/MS competition	Candida albicans lysate	1 µM	baseline: DMSO, negative = stronger binding	log2 fold change	-0.04
CN1CCN(c2cc(-c3ccncc3)c(-c3ccc4ccccc4c3)nn2)CC1	Prostacyclin receptor (PTGIR, Homo sapiens, UniProt P43119)	agonist, FLIPR	–	12.5 µM	–	activation	-0.3%
OC[C@H]1OC(O)[C@H](O)[C@@H](O)[C@@H]1O (stereo partly shown)	Hexokinase-3 (HK3, Homo sapiens, UniProt P52790, R807A)	substrate inhibition	–	mutant R807A, partial substrate inhibition model, together with: ATP 20 mM	–	kcat	69 ± 11 s⁻¹
C=CC(=O)N1CCN(c2nc(OC[C@@H]3CCCN3C)nc3c(F)c(-c4nc(N)cc(C)c4C(F)(F)F)c(Cl)cc23)[C@@H](C)C1	GTPase KRas, GDP-bound (KRAS, Homo sapiens, UniProt P01116, C118S/G12C)	covalent inhibitor	–	–	–	kinact/KI	1.1e+06 M⁻¹ s⁻¹
CC[C@H](C)[C@@H]1NC(=O)[C@H](C)NC(=O)[C@H]([C@@H](C)CC)NC(=O)[C@H](CCC(N)=O)NC(=O)[C@H](C)NC(=O)[C@H](CCCNC(=N)N)NC(=O)[C@H](C(C)C)NC(=O)[C@H](CC(C)C)NC(=O)[C@H](CCC(=O)O)NC(=O)[C@H](CCCNC(=N)N)NC(=O)CNC(=O)[C@@H](NC(=O)[C@H](CC(C)C)NC(=O)[C@H](CCCCN)NC(=O)[C@@H](NC(=O)[C@@H](NC(=O)[C@H](CCC(=O)O)NC(=O)[C@H](CCC(=O)O)NC(=O)[C@H](CCSC)NC(=O)[C@H](Cc2c[nH]c3ccccc23)NC(=O)[C@H](CO)NC(=O)[C@@H](N)CC(=O)O)C(C)C)[C@@H](C)CC)CSSC[C@@H]2NC(=O)[C@@H](NC(=O)[C@H](CCCCN)NC(=O)[C@H](CC(N)=O)NC(=O)[C@H](C)NC(=O)[C@H](CC(C)C)NC(=O)[C@H](C)NC(=O)[C@H](CO)NC(=O)[C@H](Cc3ccc(O)cc3)NC(=O)[C@H](CC(C)C)NC(=O)[C@H](CCC(N)=O)NC(=O)c3ccc(-c4c5ccc(=[N+](C)C)cc-5oc5cc(N(C)C)ccc45)c(C(=O)[O-])c3)CSSC[C@H](NC(=O)CNC(=O)[C@H](C(C)C)NC(=O)[C@H](Cc3c[nH]cn3)NC2=O)C(=O)N[C@@H]([C@@H](C)O)C(=O)N[C@@H](CCCCN)C(=O)N[C@@H](CCCNC(=N)N)C(=O)N[C@@H](CO)C(=O)N[C@@H](CC(C)C)C(=O)N[C@@H](C)C(=O)N[C@@H](CCCNC(=N)N)C(=O)N[C@@H](Cc2ccccc2)C(=O)N[C@H](C(=O)O)CSSC[C@@H](C(=O)NCC(=O)N[C@@H](CCSC)C(=O)N[C@@H](CO)C(=O)N[C@H](C(=O)N[C@@H](Cc2c[nH]c3ccccc23)C(=O)N[C@@H](CO)C(=O)O)[C@@H](C)O)NC1=O	Relaxin receptor 1 (RXFP1, Homo sapiens, UniProt Q9HBX9, F76A/Y80A)	NanoBRET	–	concentration not given, infinite dilution	–	fast dissociation fraction	63.1%
CC1=NCCNC(=O)C1=NNc1ccc(S(N)(=O)=O)cc1	bovine α-glucosidase	enzyme activity, inhibitor, glucose oxidase	–	500 µg/mL, together with: maltose	–	inhibition	65.9%
O=C(COc1cc(Cl)ccc1Cl)Nc1cc(C2CCC2)nn1CC(F)(F)F	Kir3.1/Kir3.4	activator, thallium flux	HEK293	concentration not given	–	activity	inactive
CC(C)C[C@@H](N)C(=O)Nc1ccc2ccccc2c1	rat aminopeptidase III	substrate	–	concentration not given, pH 7.0	–	hydrolysis	inactive
CCS(=O)(=O)N1CC(CC#N)(n2cc(-c3ncnc4[nH]ccc34)cn2)C1	Alpha-1-acid glycoprotein 1 (ORM1, Homo sapiens, UniProt P02763)	fluorescence quenching	–	308 K	–	bimolecular quenching constant	4.12e+12 ± 8.5e+11 M⁻¹ s⁻¹
Nc1nc2c(ncn2[C@@H]2O[C@H](COP(=O)(O)O)[C@@H](O)[C@H]2O)c(=O)[nH]1	GUK1 (Homo sapiens, UniProt Q16774, S37P)	enzyme activity, NADH-coupled	–	125 µM	–	reaction rate	0.805 s⁻¹ and 0.472 s⁻¹ and 0.73 s⁻¹
CCOc1nc2nc(C)cc(Nc3ccc(S(F)(F)(F)(F)F)cc3)n2n1	pyrD	enzyme activity, inhibitor, colorimetric HTS, measured: DCIP reduction	–	3 µM	direction not given	robust Z-score	24.5
Cc1ccc(S(=O)(=O)Oc2ccccc2NC(=O)c2ccc3ncccc3c2)cc1	P2X purinoceptor 4 (P2RX4, Homo sapiens, UniProt Q99571)	calcium mobilization	MCF7 stably transfected	100 µM, together with: ATP 100 µM	–	fluorescence increase	82.4 ± 1.55%
O=C(O)C1CCCNC1 (stereo not shown)	SLC6A6 G62A	binding, microscale thermophoresis	–	15.6 µM, room temperature, together with: 50 nM labelled protein	higher = more binding	normalised MST signal	-0.0657
O=c1nc(SCc2cc(F)cc(C(F)(F)F)c2)nc(SCc2ccc3nc(Cl)ccc3c2)[nH]1	DNA topoisomerase 2-alpha (TOP2A, Homo sapiens, UniProt P11388)	ATPase activity	–	15.6 µM, together with: ATP 0.75 mM	–	ATP hydrolysis rate	2.27 µM/min and 1.62 µM/min
C[C@]12C[C@H](O)[C@H]3[C@@H](CCC4=CC(=O)CC[C@@]43C)[C@@H]1CC[C@@H]2C(=O)CO	Cytochrome P450 11B1, mitochondrial (CYP11B1, Homo sapiens, UniProt P15538, V320A)	substrate	–	100 µM, 37 °C, phospholipid vesicles	–	NADPH consumption rate, 18-hydroxylation	65.9 ± 6.7 min⁻¹
CC(/C=C1\SC(=S)N(CC(=O)O)C1=O)=C\c1ccccc1	AKR1B1	enzyme activity, inhibitor	–	–	–	Hill slope	-0.551

SMILES	target	assay	system	conditions	how to read	measurement	result
COc1cc(-c2cc(C(C)=O)n3ccccc23)cc(OC)c1Cn1ccnc1	CREB-binding protein (CREBBP, Homo sapiens, UniProt Q92793)	–	–	–	–	ΔTm	2.5 °C
O=[N+]([O-])c1cc(C(F)(F)F)ccc1NCc1ccco1	Endothelial PAS domain-containing protein 1, PAS-B domain (EPAS1, Homo sapiens, UniProt Q99814)	ZZ-exchange NMR	–	25 °C	–	koff	2.82 ± 0.16 s⁻¹
O=C(COc1cccc(Cl)c1Cl)Nc1cc(C2CCC2)nn1C1CCC(F)(F)CC1	Kir3.1/Kir3.4	thallium flux, activator	HEK293	–	baseline: standard compound	Emax	< 10%
O=C(CN1C(=O)S/C(=C\c2ccc([N+](=O)[O-])cc2)C1=O)c1ccc([N+](=O)[O-])cc1	AKR1B1	enzyme activity, inhibitor	–	–	–	Hill slope	-0.42
Nc1ccc(C(=O)O)cc1	BEST1 (Homo sapiens, UniProt O76090)	whole-cell patch clamp	HEK293 transiently expressing channel	concentration not given, membrane potential -80 mV	–	current density	-41.1 pA/pF and -41.6 pA/pF and -84.5 pA/pF and -44 pA/pF and -65 pA/pF and -57.6 pA/pF and -75.9 pA/pF
C[C@H](CCC(C)(C)O)[C@H]1CC[C@H]2[C@@H]3CC=C4C[C@@](C)(O)CC[C@]4(C)[C@H]3CC[C@]12C	Glutamate NMDA receptor; GRIN1/GRIN2B (GRIN1/GRIN2B, Homo sapiens, UniProt Q05586+Q13224)	ion current, positive allosteric modulator, two-electrode voltage clamp	Xenopus oocytes	10 µM, wild type, together with: 1000 µM glutamate, glycine	baseline: absence of compound	current potentiation	199 ± 12%
NCCCC(=O)O	SLC6A6 G62A	binding, microscale thermophoresis	–	122 nM, room temperature, together with: 50 nM labelled protein	higher = more binding	normalised MST signal	-0.0624
C=CC(=O)N1CCC(C(=O)NCC(=O)N2CCN(c3nc(-c4cnc(N)nc4C(F)F)nc(N4CCOCC4)n3)CC2)CC1	Membrane-associated tyrosine- and threonine-specific cdc2-inhibitory kinase (PKMYT1, Homo sapiens, UniProt Q99640)	KINOMEscan	–	1 µM	–	remaining binding	92%
Nc1ncnc2c1ncn2[C@@H]1O[C@H](COP(=O)(O)OP(=O)(O)NP(=O)(O)O)[C@@H](O)[C@H]1O	Cell cycle histidine kinase CckA, CA domain (Caulobacter vibrioides, UniProt Q9X688)	ITC	–	together with: c-di-GMP 100 µM	–	ΔH	-2.39 ± 0.156 kcal/mol
NS(=O)(=O)NCCNc1nonc1C(=NO)Nc1ccc(F)c(Br)c1	Indoleamine 2,3-dioxygenase 1 (IDO1, Homo sapiens, UniProt P14902)	nanoDSF	1% DMSO	50 µM, unlabelled protein 2.5 µM, no DTT	–	inflection temperature	65.2 ± 0.1 °C
C=CC(=O)N1CCC(COCC(=O)N2CCN(c3nc(-c4cnc(N)nc4C(F)F)nc(N4CCOC[C@@H]4C)n3)CC2)CC1	TNK1	KINOMEscan	–	1 µM	–	remaining binding	94%
Cc1nc2ncnn2c(Nc2ccc(C(F)(F)F)cc2)c1Cl	pyrD	enzyme activity, inhibitor, colorimetric HTS, measured: DCIP reduction	–	3 µM	direction not given	robust Z-score	18
COc1cc(C(F)(F)F)cc2c(N3CCN4c5ccccc5OC[C@H]4C3)c(C#N)nnc12 (single isomer, unassigned)	Metabotropic glutamate receptor 7 (Grm7, Rattus norvegicus, UniProt P35400)	positive allosteric modulator	cell-based	together with: L-AP4 EC20	baseline: L-AP4 maximum	maximal response	54%
Cc1cc(Nc2ccc(S(F)(F)(F)(F)F)cc2)n2ccnc2n1	pyrD	enzyme activity, inhibitor, colorimetric HTS, measured: DCIP reduction	–	3 µM	direction not given	robust Z-score	25.1
CCC1(O)CCCN(C(=O)c2ccc(-c3ccc(F)c(NC(=O)CCl)c3)cc2)C1 (stereo not shown)	DNA dC->dU-editing enzyme APOBEC-3A (Homo sapiens, UniProt P31941)	covalent modifier, intact protein mass spectrometry, measured: adduct +26309 Da	–	25 µM, 3 h, 1-fold molar excess	–	protein adduct	66.5%
COCCC(=O)N1CCC(Oc2ccccc2)C1 (stereo not shown)	Protein transport protein Sec31A (SEC31A, Homo sapiens, UniProt O94979)	binding, affinity selection mass spectrometry	–	–	baseline: other proteins in batch	log fold enrichment	0.000284
CN(C)C(=O)C(CCN1CCC(O)(c2ccc(Cl)cc2)CC1)(c1ccccc1)c1ccccc1	Calcium-activated potassium channel subunit alpha-1, with LRRC26 γ1 subunit (KCNMA1, Homo sapiens, UniProt Q12791)	BK current, inside-out patch clamp	excised membrane patch	0.3 µM, γ1 coexpressed, individual fits, together with: nominally 0 Ca2+ cytosolic	–	effective gating valence	1.19 ± 0.15 elementary charges
CN(C)Cc1cc(Nc2ccc(S(F)(F)(F)(F)F)cc2)n2nc(C(C)(F)F)nc2n1	pyrD	enzyme activity, inhibitor, colorimetric HTS, measured: DCIP reduction	–	3 µM	direction not given	robust Z-score	17.8
CO[C@H]1O[C@H](COS(=O)(=O)O)[C@@H](O[C@@H]2O[C@@H](C(=O)O)[C@@H](O[C@H]3O[C@H](COS(=O)(=O)O)[C@@H](O[C@@H]4O[C@H](C(=O)O)[C@@H](O[C@H]5O[C@H](COS(=O)(=O)O)[C@@H](O)[C@H](O)[C@H]5NS(=O)(=O)O)[C@H](O)[C@H]4O)[C@H](OS(=O)(=O)O)[C@H]3NS(=O)(=O)O)[C@H](O)[C@H]2OS(=O)(=O)O)[C@H](O)[C@H]1NS(=O)(=O)O	Beta-2-glycoprotein 1, domain V (APOH, Homo sapiens, UniProt P02749, V266L)	isothermal titration calorimetry	–	298 K, together with: 150 mM NaCl	–	association constant	26500 ± 5560 M⁻¹
COc1cc2ccc(=O)oc2cc1O	uncharacterized protein (Solanum tuberosum, UniProt M0ZZL3)	enzyme activity	–	inhibitory mode parameter	–	Hill coefficient	2 ± 0.6
Nc1ncnc2c1ncn2[C@@H]1O[C@H](CO[P@](=O)(O)O[P@](=O)(O)O[P@@](=O)(O)S)[C@@H](O)[C@H]1O	GUK1 (Homo sapiens, UniProt Q16774, K17A)	binding, ITC	–	together with: GMP	–	-TΔS	-1.97 kcal/mol
O=C(Nc1ccc(Cl)c(Br)c1)c1ccc2c(c1)C(=O)NC2=O	Amine oxidase [flavin-containing] B (MAOB, Homo sapiens, UniProt P27338)	–	–	–	baseline: IC50 MAO-A over IC50 MAO-B	selectivity ratio	> 3330
CCc1cnn2c(NCc3ccc[n+]([O-])c3)cc(N3CCCC[C@H]3CCO)nc12	Bromodomain-containing protein 4 (BRD4, Homo sapiens, UniProt O60885)	19F NMR, measured: tyrosine 119	–	47 µM	baseline: free protein	chemical shift change	-0.084 ppm
